{"data": "Experimental data collected from several papers", "note": "Parts stem from different laboratories: compare values within a part only.", "sequence of UniProt P10721 (whole entry, unmodified, looked up)": "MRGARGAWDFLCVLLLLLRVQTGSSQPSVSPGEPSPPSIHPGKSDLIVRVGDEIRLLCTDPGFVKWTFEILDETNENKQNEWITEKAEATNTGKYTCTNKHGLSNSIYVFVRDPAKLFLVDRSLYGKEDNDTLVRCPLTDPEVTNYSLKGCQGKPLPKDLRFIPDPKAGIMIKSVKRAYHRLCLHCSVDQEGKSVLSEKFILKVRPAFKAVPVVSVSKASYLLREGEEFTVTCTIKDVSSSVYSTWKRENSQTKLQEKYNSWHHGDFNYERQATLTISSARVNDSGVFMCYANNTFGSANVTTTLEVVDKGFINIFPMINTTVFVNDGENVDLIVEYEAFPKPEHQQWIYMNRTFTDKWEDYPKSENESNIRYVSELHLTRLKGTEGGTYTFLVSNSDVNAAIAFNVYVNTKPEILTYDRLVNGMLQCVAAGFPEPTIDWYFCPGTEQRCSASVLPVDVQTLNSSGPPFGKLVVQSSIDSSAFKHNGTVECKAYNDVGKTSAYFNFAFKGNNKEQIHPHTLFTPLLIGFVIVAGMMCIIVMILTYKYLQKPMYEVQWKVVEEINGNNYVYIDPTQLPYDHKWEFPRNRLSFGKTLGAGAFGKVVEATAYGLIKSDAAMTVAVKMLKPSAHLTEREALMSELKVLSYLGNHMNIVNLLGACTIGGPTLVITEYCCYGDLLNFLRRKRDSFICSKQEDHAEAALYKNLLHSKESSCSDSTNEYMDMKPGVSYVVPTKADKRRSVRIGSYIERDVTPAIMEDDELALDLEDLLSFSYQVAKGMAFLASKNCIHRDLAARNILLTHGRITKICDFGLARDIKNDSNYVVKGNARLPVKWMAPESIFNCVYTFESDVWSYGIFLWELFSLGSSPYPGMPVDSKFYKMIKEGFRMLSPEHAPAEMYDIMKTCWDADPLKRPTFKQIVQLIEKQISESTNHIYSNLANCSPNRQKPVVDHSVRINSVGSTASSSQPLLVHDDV", "sequence of UniProt P42685 (whole entry, looked up)": "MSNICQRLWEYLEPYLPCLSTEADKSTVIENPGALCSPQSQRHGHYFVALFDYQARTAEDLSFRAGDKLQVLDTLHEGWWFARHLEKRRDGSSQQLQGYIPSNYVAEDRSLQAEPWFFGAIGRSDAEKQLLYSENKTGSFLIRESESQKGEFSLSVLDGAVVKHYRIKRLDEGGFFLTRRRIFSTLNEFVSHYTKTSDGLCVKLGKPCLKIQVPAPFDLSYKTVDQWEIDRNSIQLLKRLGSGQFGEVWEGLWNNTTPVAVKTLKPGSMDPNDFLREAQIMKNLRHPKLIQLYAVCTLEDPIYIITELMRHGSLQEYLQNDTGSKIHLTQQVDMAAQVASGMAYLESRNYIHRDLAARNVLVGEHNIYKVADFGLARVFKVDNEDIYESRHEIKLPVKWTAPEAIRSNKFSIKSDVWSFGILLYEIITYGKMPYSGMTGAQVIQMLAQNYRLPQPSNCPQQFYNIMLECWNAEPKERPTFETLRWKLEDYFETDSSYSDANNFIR", "sequence of UniProt Q8IY84 (whole entry, looked up)": "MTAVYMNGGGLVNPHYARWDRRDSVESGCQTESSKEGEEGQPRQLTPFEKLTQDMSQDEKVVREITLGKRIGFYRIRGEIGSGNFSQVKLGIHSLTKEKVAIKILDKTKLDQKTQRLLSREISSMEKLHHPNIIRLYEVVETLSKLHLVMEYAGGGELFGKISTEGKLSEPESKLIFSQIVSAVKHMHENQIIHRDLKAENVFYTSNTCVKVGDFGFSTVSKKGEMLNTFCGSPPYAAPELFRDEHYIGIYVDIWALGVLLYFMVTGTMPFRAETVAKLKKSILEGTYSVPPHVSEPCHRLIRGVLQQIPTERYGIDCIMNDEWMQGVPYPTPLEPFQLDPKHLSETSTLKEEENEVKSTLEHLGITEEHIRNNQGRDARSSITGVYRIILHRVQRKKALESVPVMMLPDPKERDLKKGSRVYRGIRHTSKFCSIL", "sequence of UniProt O60285 (whole entry, looked up)": "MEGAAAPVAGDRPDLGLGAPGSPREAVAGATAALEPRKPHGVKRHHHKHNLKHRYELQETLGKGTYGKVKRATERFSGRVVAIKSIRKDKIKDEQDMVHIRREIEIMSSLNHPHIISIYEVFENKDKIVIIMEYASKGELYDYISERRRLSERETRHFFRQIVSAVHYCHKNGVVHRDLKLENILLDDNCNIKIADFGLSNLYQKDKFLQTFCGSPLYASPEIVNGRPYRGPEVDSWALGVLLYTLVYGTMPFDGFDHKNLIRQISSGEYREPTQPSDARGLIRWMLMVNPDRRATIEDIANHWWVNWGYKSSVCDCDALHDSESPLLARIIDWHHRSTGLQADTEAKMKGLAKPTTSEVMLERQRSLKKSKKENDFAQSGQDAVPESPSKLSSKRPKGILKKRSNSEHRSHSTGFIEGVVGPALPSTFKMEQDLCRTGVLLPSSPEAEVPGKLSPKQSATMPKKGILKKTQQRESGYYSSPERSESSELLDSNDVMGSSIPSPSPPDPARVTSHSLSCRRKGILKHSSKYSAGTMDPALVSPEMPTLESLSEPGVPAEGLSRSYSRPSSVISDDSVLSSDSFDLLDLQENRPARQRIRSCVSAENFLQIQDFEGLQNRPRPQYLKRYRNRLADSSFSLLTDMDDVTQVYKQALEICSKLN", "sequence of UniProt P45983 (whole entry, looked up)": "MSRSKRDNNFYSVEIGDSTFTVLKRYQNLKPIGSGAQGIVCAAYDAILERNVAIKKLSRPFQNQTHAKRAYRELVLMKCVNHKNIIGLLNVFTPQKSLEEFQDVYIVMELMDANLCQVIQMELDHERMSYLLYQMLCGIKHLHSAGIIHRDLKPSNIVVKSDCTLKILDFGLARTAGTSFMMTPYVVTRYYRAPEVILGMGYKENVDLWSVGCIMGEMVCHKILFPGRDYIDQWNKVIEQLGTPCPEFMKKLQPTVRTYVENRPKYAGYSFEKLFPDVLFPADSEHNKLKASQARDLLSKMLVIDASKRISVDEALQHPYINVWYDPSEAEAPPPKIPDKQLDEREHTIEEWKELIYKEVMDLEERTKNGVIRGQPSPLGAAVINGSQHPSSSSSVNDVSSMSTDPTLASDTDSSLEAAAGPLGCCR", "sequence of UniProt Q8IU85 (whole entry, looked up)": "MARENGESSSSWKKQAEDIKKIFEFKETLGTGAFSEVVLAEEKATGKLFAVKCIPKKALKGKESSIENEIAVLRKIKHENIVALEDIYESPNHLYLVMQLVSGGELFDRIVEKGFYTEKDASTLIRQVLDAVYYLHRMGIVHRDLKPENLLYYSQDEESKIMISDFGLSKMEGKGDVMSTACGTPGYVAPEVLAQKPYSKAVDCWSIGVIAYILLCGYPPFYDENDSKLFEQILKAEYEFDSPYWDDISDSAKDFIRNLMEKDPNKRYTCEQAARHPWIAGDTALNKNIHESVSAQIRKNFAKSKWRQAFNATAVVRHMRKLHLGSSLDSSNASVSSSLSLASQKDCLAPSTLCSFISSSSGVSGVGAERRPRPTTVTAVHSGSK"}
{"data": "Sample 1", "SMILES": "O=C(Nc1cccnn1)N1CC(C/C=C/c2cncc(Oc3ccc(C(F)(F)F)cn3)n2)C1", "technique": "competition with immobilised ligand", "tested at": "1 µM"}
{"target": "Insulin receptor (INSR, Homo sapiens, UniProt P06213)", "read-out": "cell-free assay", "remaining binding": "100%"}
{"target": "WNK1 (Homo sapiens, UniProt Q9H4A3)", "read-out": "cell-free assay", "remaining binding": "100%"}
{"target": "eIF-2-alpha kinase GCN2, C-terminal kinase domain (EIF2AK4, Homo sapiens, UniProt Q9P2K8, S808G)", "read-out": "cell-free assay", "remaining binding": "97%"}
{"target": "PIP5K1C (Homo sapiens, UniProt O60331)", "read-out": "cell-free assay", "remaining binding": "100%"}
{"target": "STK32B (Homo sapiens, UniProt Q9NY57)", "read-out": "cell-free assay", "remaining binding": "100%"}
{"target": "ACVRL1 (Homo sapiens, UniProt P37023)", "read-out": "binding", "remaining binding": "100%"}
{"target": "MAP3K20 (Homo sapiens, UniProt Q9NYL2)", "read-out": "cell-free assay", "remaining binding": "100%"}
{"target": "FLT3 (Homo sapiens, UniProt P36888, F691L/ITD)", "read-out": "cell-free assay", "remaining binding": "76%"}
{"target": "GRK1 (Homo sapiens, UniProt Q15835)", "read-out": "cell-free assay", "remaining binding": "82%"}
{"target": "MAK (Homo sapiens, UniProt P20794)", "read-out": "cell-free assay", "remaining binding": "100%"}
{"target": "KIT (Homo sapiens, UniProt P10721, V559D)", "read-out": "cell-free assay", "remaining binding": "64%"}
{"target": "MAPK8 (Homo sapiens, UniProt P45983)", "read-out": "cell-free assay", "remaining binding": "75%"}
{"target": "Tyrosine-protein kinase ABL1, phosphorylated (ABL1, Homo sapiens, UniProt P00519, H396P)", "read-out": "cell-free assay", "remaining binding": "76%"}
{"target": "ULK1 (Homo sapiens, UniProt O75385)", "read-out": "cell-free assay", "remaining binding": "79%"}
{"target": "NUAK1 (Homo sapiens, UniProt O60285)", "read-out": "cell-free assay", "remaining binding": "100%"}
{"target": "MAP3K12 (Homo sapiens, UniProt Q12852)", "read-out": "cell-free assay", "remaining binding": "83%"}
{"target": "FGFR3 (Homo sapiens, UniProt P22607)", "read-out": "cell-free assay", "remaining binding": "97%"}
{"target": "CAMK1D (Homo sapiens, UniProt Q8IU85)", "read-out": "cell-free assay", "remaining binding": "100%"}
{"target": "CSNK1G3 (Homo sapiens, UniProt Q9Y6M4)", "read-out": "cell-free assay", "remaining binding": "100%"}
{"target": "Mast/stem cell growth factor receptor Kit, autoinhibited (KIT, Homo sapiens, UniProt P10721)", "read-out": "cell-free assay", "remaining binding": "78%"}
{"target": "CDK18 (Homo sapiens, UniProt Q07002)", "read-out": "cell-free assay", "remaining binding": "100%"}
{"target": "EPHA4 (Homo sapiens, UniProt P54764)", "read-out": "cell-free assay", "remaining binding": "100%"}
{"target": "LRRK2 (Homo sapiens, UniProt Q5S007)", "read-out": "cell-free assay", "remaining binding": "90%"}
{"target": "TESK1 (Homo sapiens, UniProt Q15569)", "read-out": "cell-free assay", "remaining binding": "100%"}
{"target": "FRK (Homo sapiens, UniProt P42685)", "read-out": "cell-free assay", "remaining binding": "82%"}
{"data": "Sample 2", "cell line": "HaCaT", "tested at": "100 µM", "time": "36 h"}
{"Compound": "CCN(CC)Cc1cc(Nc2ccnc3cc(Cl)ccc23)ccc1O", "viability [%]": 17.1}
{"Compound": "O=C(OOC(=O)c1ccccc1)c1ccccc1", "viability [%]": 95.6}
{"Compound": "COc1ccc([C@@H]2CC(=O)c3c(O)cc(O[C@@H]4O[C@H](CO[C@@H]5O[C@@H](C)[C@H](O)[C@@H](O)[C@H]5O)[C@@H](O)[C@H](O)[C@H]4O)cc3O2)cc1OC", "viability [%]": 89.4}
{"Compound": "OCc1ccccc1O[C@@H]1O[C@H](CO)[C@@H](O)[C@H](O)[C@H]1O", "viability [%]": 85.4}
{"Compound": "CCN(CC)C(=O)c1ccc(O)c(OC)c1", "viability [%]": 84.4}
{"Compound": "NC(=O)c1cccnc1", "viability [%]": 94.2}
{"Compound": "c1ccc(CC2=NCCN2)cc1", "viability [%]": 83.9}
{"Compound": "OCc1ccc(O[C@@H]2O[C@H](CO)[C@@H](O)[C@H](O)[C@H]2O)cc1", "viability [%]": 86.7}
{"Compound": "CC(=O)OCC(=O)[C@@]1(O)CC[C@H]2[C@@H]3CCC4=CC(=O)C=C[C@]4(C)[C@H]3[C@@H](O)C[C@@]21C", "viability [%]": 98.4}
{"Compound": "CCCCOc1ccc(CC(=O)NO)cc1", "viability [%]": 77.6}
{"Compound": "O=C(Nc1ccccc1)c1ccccc1O", "viability [%]": 28.9}
{"Compound": "CN1C(C)(C)CCCC1(C)C", "viability [%]": 90.6}
{"Compound": "CC1(O)CCC(C(C)(C)O)CC1 (stereo not shown)", "viability [%]": 86.3}
{"Compound": "Cc1nccnc1N1CCCCC1", "viability [%]": 70.1}
{"data": "Sample 3", "target": "Ribosomal protein S6 kinase beta-1 (RPS6KB1, Homo sapiens, UniProt P23443)", "read-out": "enzyme activity", "mode": "inhibitor", "tested at": "0.5 µM", "relative to": "control", "sequence of UniProt P23443 (whole entry, looked up)": "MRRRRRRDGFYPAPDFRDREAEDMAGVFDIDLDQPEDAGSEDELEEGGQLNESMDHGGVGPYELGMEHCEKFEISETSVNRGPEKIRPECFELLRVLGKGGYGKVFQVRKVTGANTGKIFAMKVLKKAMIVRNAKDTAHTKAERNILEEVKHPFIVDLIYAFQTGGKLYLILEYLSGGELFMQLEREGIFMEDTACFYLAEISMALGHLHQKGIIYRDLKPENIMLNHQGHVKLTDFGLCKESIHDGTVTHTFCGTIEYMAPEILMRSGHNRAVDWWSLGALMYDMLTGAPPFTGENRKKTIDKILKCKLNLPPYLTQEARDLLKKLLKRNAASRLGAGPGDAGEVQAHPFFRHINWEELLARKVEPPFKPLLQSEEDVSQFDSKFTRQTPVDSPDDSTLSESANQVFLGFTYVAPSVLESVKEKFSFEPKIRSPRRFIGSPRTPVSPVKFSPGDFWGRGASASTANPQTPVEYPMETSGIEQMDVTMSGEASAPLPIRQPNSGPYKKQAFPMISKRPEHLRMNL"}
{"Structure (SMILES)": "FC(F)(F)c1ccc(/C=C/c2nc(COc3ccc(CCCCn4ccnn4)cc3)co2)cc1", "remaining activity [%]": 105}
{"Structure (SMILES)": "C[C@@H](N)[C@H]1CC[C@H](C(=O)Nc2ccncc2)CC1", "remaining activity [%]": 92.4}
{"Structure (SMILES)": "CCN(CC)CCCCN1c2ccccc2Oc2ccc(Cl)cc21", "remaining activity [%]": 97.7}
{"Structure (SMILES)": "N#C/C(=C(/N)SC1C=CC=CC1)c1cccc(C(O)c2ccncc2)c1 (stereo not shown)", "remaining activity [%]": 102}
{"Structure (SMILES)": "O=Nc1c(-c2c(O)[nH]c3ccccc23)[nH]c2ccccc12", "remaining activity [%]": 75.9}
{"Structure (SMILES)": "CNc1cc2c(Nc3cccc(Br)c3)ncnc2cn1", "remaining activity [%]": 97.4}
{"Structure (SMILES)": "O=C1NC(=O)/C(=C/c2ccc3c(c2)OC(F)(F)O3)S1", "remaining activity [%]": 85.1}
{"Structure (SMILES)": "NC(=O)c1cccc(-c2cc(Nc3ccc(OC(F)(F)F)cc3)ncn2)c1", "remaining activity [%]": 109}
{"Structure (SMILES)": "CCCCc1c(-c2ccc(O)cc2)[nH]c2nccnc12", "remaining activity [%]": 105}
{"Structure (SMILES)": "c1cc(-c2cnn3cc(-c4ccc(OCCN5CCCCC5)cc4)cnc23)ccn1", "remaining activity [%]": 82.2}
{"Structure (SMILES)": "Clc1ccc(Nc2nnc(Cc3ccncc3)c3ccccc23)cc1", "remaining activity [%]": 102}
{"Structure (SMILES)": "O=C1c2ccccc2-c2nc3nnnn3nc21", "remaining activity [%]": 85.8}
{"Structure (SMILES)": "COc1cc2c(N3CCN(C(=O)Nc4ccc(OC(C)C)cc4)CC3)ncnc2cc1OCCCN1CCCCC1", "remaining activity [%]": 107}
{"Structure (SMILES)": "O=C(c1ccccc1)c1ccc(N2CCOCC2)cc1O", "remaining activity [%]": 95.3}
{"Structure (SMILES)": "N#CC(c1ccnc(NCCc2cccnc2)n1)c1nc2ccccc2s1 (stereo not shown)", "remaining activity [%]": 98.2}
{"Structure (SMILES)": "CC(C)N(CCC(=O)c1ccc2ccccc2c1)Cc1ccccc1", "remaining activity [%]": 97.2}
{"Structure (SMILES)": "CC(C)(C)c1nc2c3cc[nH]c(=O)c3c3cc(F)ccc3c2[nH]1", "remaining activity [%]": 74.1}
{"Structure (SMILES)": "CC(C)n1cnc2c(Nc3cccc(Cl)c3)nc(NCCO)nc21", "remaining activity [%]": 93.3}
{"Structure (SMILES)": "NC(=O)c1ccc(-c2nc(-c3ccc4c(c3)OCCO4)c(-c3ccccn3)[nH]2)cc1", "remaining activity [%]": 101}
{"Structure (SMILES)": "Nc1nc(Nc2ccc(S(N)(=O)=O)cc2)nn1C(=S)Nc1c(F)cccc1F", "remaining activity [%]": 30}
{"Structure (SMILES)": "O=c1c(-c2ccc(F)cc2)c(-c2ccncc2)[nH]n1-c1ccc(Cl)cc1", "remaining activity [%]": 89.9}
{"Structure (SMILES)": "O=C(O)/C=C/c1cc(Br)c(Br)c(Br)c1Br", "remaining activity [%]": 91.4}
{"data": "Sample 4", "Compound": "CC#CC(=O)N1CCC[C@H]1c1nc(-c2ccc(C(=O)Nc3ccccn3)cc2)c2c(N)nccn12", "mode": "inhibitor", "tested at": "1 µM"}
{"target": "CSNK1D (Homo sapiens, UniProt P48730)", "read-out": "enzyme activity", "inhibition [%]": 2}
{"target": "Mast/stem cell growth factor receptor Kit, autoinhibited (KIT, Homo sapiens, UniProt P10721)", "read-out": "enzyme activity", "inhibition [%]": 3}
{"target": "WEE2 (Homo sapiens, UniProt P0C1S8)", "read-out": "enzyme activity", "inhibition [%]": 0}
{"target": "FLT3 (Homo sapiens, UniProt P36888, F691L/ITD)", "read-out": "enzyme activity", "inhibition [%]": 10}
{"target": "PRKAA2 (Homo sapiens, UniProt P54646)", "read-out": "enzyme activity", "inhibition [%]": 0}
{"target": "LIM domain kinase 1 (LIMK1, Homo sapiens, UniProt P53667)", "read-out": "enzyme activity", "inhibition [%]": 79}
{"target": "CDK11A (Homo sapiens, UniProt Q9UQ88)", "read-out": "enzyme activity", "inhibition [%]": 7}
{"target": "PRKACB (Homo sapiens, UniProt P22694)", "read-out": "enzyme activity", "inhibition [%]": 0}
{"target": "TRPM6 (Homo sapiens, UniProt Q9BX84)", "inhibition [%]": 12}
{"target": "NIM1K (Homo sapiens, UniProt Q8IY84)", "read-out": "enzyme activity", "inhibition [%]": 0}
{"target": "EIF2AK2 (Homo sapiens, UniProt P19525)", "read-out": "enzyme activity", "inhibition [%]": 29}
{"target": "RIPK4 (Homo sapiens, UniProt P57078)", "read-out": "enzyme activity", "inhibition [%]": 3}
{"target": "MAP3K1 (Homo sapiens, UniProt Q13233)", "read-out": "enzyme activity", "inhibition [%]": 0}
{"target": "PRKG2 (Homo sapiens, UniProt Q13237)", "read-out": "enzyme activity", "inhibition [%]": 0}
{"target": "FGFR4 (Homo sapiens, UniProt P22455)", "read-out": "enzyme activity", "inhibition [%]": 0}
{"note": "Repeated from above (sample 1):"}
{"target": "LRRK2 (Homo sapiens, UniProt Q5S007)", "read-out": "cell-free assay", "remaining binding": "90%"}
{"target": "TESK1 (Homo sapiens, UniProt Q15569)", "read-out": "cell-free assay", "remaining binding": "100%"}
{"target": "MAP3K12 (Homo sapiens, UniProt Q12852)", "read-out": "cell-free assay", "remaining binding": "83%"}
{"target": "Tyrosine-protein kinase ABL1, phosphorylated (ABL1, Homo sapiens, UniProt P00519, H396P)", "read-out": "cell-free assay", "remaining binding": "76%"}
{"target": "Insulin receptor (INSR, Homo sapiens, UniProt P06213)", "read-out": "cell-free assay", "remaining binding": "100%"}
{"target": "CSNK1G3 (Homo sapiens, UniProt Q9Y6M4)", "read-out": "cell-free assay", "remaining binding": "100%"}
{"target": "NUAK1 (Homo sapiens, UniProt O60285)", "read-out": "cell-free assay", "remaining binding": "100%"}
{"target": "CDK18 (Homo sapiens, UniProt Q07002)", "read-out": "cell-free assay", "remaining binding": "100%"}
{"target": "KIT (Homo sapiens, UniProt P10721, V559D)", "read-out": "cell-free assay", "remaining binding": "64%"}
{"target": "ULK1 (Homo sapiens, UniProt O75385)", "read-out": "cell-free assay", "remaining binding": "79%"}
